Results of several laboratories.
Every numbered part comes from another study and shows a few of its results, in no order.
Sequence of UniProt Q9C0B0 (30-357, looked up): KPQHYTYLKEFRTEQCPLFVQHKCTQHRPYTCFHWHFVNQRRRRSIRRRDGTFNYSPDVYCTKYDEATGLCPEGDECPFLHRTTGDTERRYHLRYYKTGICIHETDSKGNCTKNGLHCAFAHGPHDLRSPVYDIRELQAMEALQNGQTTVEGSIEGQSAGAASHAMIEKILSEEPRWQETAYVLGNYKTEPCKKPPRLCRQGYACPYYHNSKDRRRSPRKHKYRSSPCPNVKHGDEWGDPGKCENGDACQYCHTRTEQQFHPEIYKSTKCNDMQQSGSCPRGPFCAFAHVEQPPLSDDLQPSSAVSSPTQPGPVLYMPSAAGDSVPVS

Study 1 — method: protein binding microarray; molecule type: double-stranded DNA, one strand shown; matrix: in vitro; tested at: not given; relative to: not given; direction: higher = stronger binding; quantity: E-score
Target: Histone acetyltransferase KAT6A, both winged helices, GST fusion (KAT6A, Homo sapiens, UniProt Q92794, residues 1-181)
Setting: 8-mer, flanks averaged, mean of 2 arrays, mostly near background
Residues (chain): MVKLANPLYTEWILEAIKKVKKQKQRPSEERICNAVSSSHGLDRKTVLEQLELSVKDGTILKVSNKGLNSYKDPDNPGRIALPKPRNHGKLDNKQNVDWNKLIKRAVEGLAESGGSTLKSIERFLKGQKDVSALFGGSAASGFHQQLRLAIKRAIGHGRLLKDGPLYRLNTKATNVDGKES
ACTCAATG: -0.0946
ACTGCGAC: 0.14
AGAGGCGC: 0.258
ATCCCAGC: -0.228
CCGGCTAC: 0.198
ATATGATG: -0.133
ACTCTCAC: 0.0744
CCGGCCGC: 0.33
GGCCATAC: -0.0111
AACTACGG: 0.171
GGGAAGAC: 0.104
ATAGTAGG: -0.0478
AGGTGTAC: -0.0467
AATACTGG: -0.185
GGTATCGA: 0.0445
GTCGTCGA: 0.0946
CTTCTCTC: -0.101
CAGAAATC: -0.159
GATTTCCA: -0.0676
TCATTAAA: 0.0607
CCCATTGC: -0.144
GATACCGC: 0.27
AACCCGTC: 0.257
ACTGGGCT: -0.176
GACGAAAA: 0.0485

Study 2 — method: RNA Bind-n-Seq; molecule type: RNA; matrix: in vitro; tested at: 365 nM; relative to: no-protein control; direction: higher = stronger binding; quantity: RBNS enrichment (R)
Target: RNA binding protein fox-1 homolog 2, RRM domain, GST-SBP tag (RBFOX2, Homo sapiens, UniProt O43251-10, residues 100-194)
Setting: natural RNA segment, single round, ends assumed
Shared flanks, not repeated: GGGAGUUCUACAGUCCGACGAUC … UGGAAUUCUCGGGUGCCAA
Target sequence (chain): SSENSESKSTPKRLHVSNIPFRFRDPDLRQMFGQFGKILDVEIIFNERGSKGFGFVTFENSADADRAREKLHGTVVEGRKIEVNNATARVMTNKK
AACAUUAUUUUUAUUUUGACUUUUUUUCAAACAGUAAGAAUAAUAUAUCAGCAGCAUGUAUCUGCCAUCAUAUGUAAUAAAUUUCUUAUUUUGCCAAAACCACUUCAGAU: 2.89
UCUCAGCUGAGCUGUGAGGGCUUCCAGGGAAAAUGGAACAAAAUGGUGUUCUUAGGUAAUGGGUUGUAGAUACUGAGUCUUCCUUUCCUUUUCUGACCCUUCUCGAGGAC: 0.722
UACUGUCUGAUUGGCUUGUAGAAUUGUUAUAGACUGCCGUGCAUUAGCACAGAUUUUAAUUGUCAUGGUUACAAACUACAGACCUGCUUUUUGAAAUGAAAUUUAAACAU: 0.604
UUUUGUUACUUGCACUUGUUAUUCGAACCACUGAGAGCGAGAUGGGAAGCAUAGAUAUCUAUAUUUUUAUUUCUACUAUGAGGGCCUUGUAAUAAAUUUCUAAAGCCUCU: 0.495
UUCUAUUAUGAAUCAUGUGAAAGCAUGACAUUCGUUCACAAUAGCACUAUUUUAAAUAAAUUAUAAGCUUUAAGGUACGAAGUAUUUAAUAGAUCUAAUCAAAUAUGUUG: 0.331
CUGAAAGCUAAAGGCUCACCACUUGAUGGUGCCUAAAGUGGGUCGGUUACCCGAGUGAGCGGCUGCACAGUGCUCACUGAGUCCCCUCAUCUCCAGCAGUCUUGGUGCUG: 0.272
UUGUUUUACUUUUGUAGCAUAAGGUUUUUGCUUUUGCUUUGCCUUAAGAGUUCCCUAGGGAGUUACCAGGGCUUUUCGUUUUGUGUAGCUUUUGCAGCAUGGAUCAAACA: 1.76
UGGUGCCCUUGUUGACUGUCUGGGAAGAUGAAUAUACCAGGGUUUCCAAAUCCAGCCCUUUUCGUUCUCUUAAUGAUGAAUCACCCAAAGACCUGGCUUUCAUGCUUCCU: 0.295
UCAAAAAAAAAAAGUCCUCUUAAGGCCAGUAAUUUAUCUGAAAAGGUAUUUUAUCACACCUUGACACCUUAUAUAUGAGCCUAUUAGGAGCUGCAGGUGGUUUCAUAGGG: 0.32
CCUUUUGCAGUUGCGUCUGGGAAGGGGCCCCGGACUCCCUCGAGAGAAUGUGCUAGAGACAGCCCCUGUCUUCUUGGCGUGGUUUAUAUGUCCGGGAUCUGGAUCAGAUU: 3.35
UUGAAAAAAUGUUCUAUAUGCAUUUAAUUCUGAAAUCAGUCUACCAAGGGGCUGCUAGUAUAUGUCAGACAUGAAAACUAUUUUAAAGCUGACUUUGUUGCCUUAUCUUG: 0.4
AUGGUCUUGCCAGCAUAGGCUUGCUAGUUCCUUCUUGGUCAGAGGUAGCUGCAGAGGGGGGAGGCCAAGGGUUUGGUCUAAGCUGUGCCCUGCCACCUGGCAGGAGGCCC: 0.455

Study 3 — method: protein-binding microarray; molecule type: double-stranded DNA, one strand shown; matrix: in vitro; tested at: 940 nM top; setting: 60-bp whole probe; together with: salmon DNA 0.4 mg/ml; relative to: random background probes; direction: higher = stronger binding; quantity: fitted relative affinity; shared flanks, not repeated: GCCTAGCAC … GTCTTGATTCGCTTGACGCTGCTG
Target: Interferon regulatory factor 5, full length, phosphomimetic (IRF5, Homo sapiens, UniProt Q13568-2, residues 1-514, S451D/S453D/S456D/S462D)
TCAGATATGCCAAATCTGACTGTGCTA: -0.296 z-score
TGAGGACTGGACACTGGGTTAGTGCTA: -0.366 z-score
GACGGCTTCCTTCTCCTGACGTGCTAG: 0.31 z-score
GACGGTATCGGTATCGGAACGTGCTAG: 9.42 z-score
CCCAGACTTGATTTTGGTCTGTGCTAG: -0.204 z-score
TCAATTTTTACATTATTACTGTGCTAG: 0.652 z-score
TTAGTTTTCGACTTTCGGTTAGTGCTA: 4.36 z-score
GACCGTTTCGGGACTGGGGACGTGCTA: 2.08 z-score
TTAGGACTGGGGTATCGGTTTGTGCTA: 2.49 z-score
TTAGGTCTCCTTATCCGTTAGTGCTAG: 0.345 z-score
TCACTTTTCTTTACTGAACTGTGCTAG: 1.39 z-score
GACGGTTTCGACAGTGGGGACGTGCTA: 6.86 z-score
TTAGATTTCGGGTATCGGTTAGTGCTA: 3.97 z-score
TCATGTCTGTGTCACAGAGAGTGCTAG: 0.117 z-score
GACGATTCCAGTTTCGAAACGTGCTAG: 4.7 z-score
GACGGTCTCCTTCTACTGACGTGCTAG: 0.84 z-score
TAATTTCCATTTTCTAAATTCGTGCTA: 0.884 z-score
GACGATATCAGACTGGAGATGTGCTAG: -0.145 z-score
TTAGATATCCTTTTCCTTTAGTGCTAG: 0.763 z-score
TTAGGTATCCTACTGCTTTGGTGCTAG: -0.0471 z-score
GACGGAGTGCTTATCCTGACGTGCTAG: -0.259 z-score
TTAGAACTGGAGTTTCGATTAGTGCTA: 5.43 z-score
TCCCATTCTGAATTCGAATGGTGCTAG: 1.23 z-score
GACGGTATCGTACTGCTGACGTGCTAG: 1.79 z-score
TCTGACCCCCTGCGCGGCAGGTGCTAG: -0.773 z-score

Study 4 — method: aptamer microarray, sandwich; molecule type: DNA with 2'F-ANA; matrix: in vitro; tested at: 200 nM; together with: Cy3 exosite-II aptamer, 400 nM; direction: higher = stronger binding; quantity: mean fluorescence intensity; sequence: GGTTGGTGTGGTTGG
Target: Prothrombin, mature alpha-thrombin (F2, Homo sapiens, UniProt P00734)
Setting: whole 15-mer aptamer, many near background
2'F-ANA at 2 3 11 12 13 14 15: 395 a.u.
2'F-ANA at 1 3 6 7 8 10 11 15: 78.5 a.u.
2'F-ANA at 5 6 7 9 14: 45.6 a.u.
2'F-ANA at 1 3 5 9 12 14: 42.7 a.u.
2'F-ANA at 1 4 5 6 7 8 9 10 11 12 13 14 15: 55.8 a.u.
2'F-ANA at 5 6 11 14 15: 75.9 a.u.
2'F-ANA at 1 5 6 7 8 9 13 14 15: 51.5 a.u.
2'F-ANA at 1 3 6 7 10 11 13 14: 57.4 a.u.
2'F-ANA at 1 2 4 5 6 7 8 10 13: 50.6 a.u.
2'F-ANA at 1 5 9 10 11 13: 42.8 a.u.
2'F-ANA at 6 7 10 14 15: 109 a.u.
2'F-ANA at 5 7 9 15: 77.7 a.u.
2'F-ANA at 2 3 5 6 12 14 15: 54.3 a.u.
2'F-ANA at 2 3 8 11 12: 990 a.u.
2'F-ANA at 1 2 3 4 6 7 9 10 11 13: 87.3 a.u.
2'F-ANA at 1 3 6 7 9 10 11 12 13: 81.4 a.u.
2'F-ANA at 3 11 12 13: 1260 a.u.
2'F-ANA at 1 2 4 6 7 8 11 12 13: 188 a.u.
2'F-ANA at 1 2 3 5 6 8 12 15: 108 a.u.
2'F-ANA at 1 5 8 9 10 14: 44.6 a.u.

Other studies, line by line
GGGAGUUCUACAGUCCGACGAUCACUGUUGUUAAGCACUGUGUUCCAGACCGUGUCUGACUCCGUGUAACCCCGGAGAUUUUACCGUUUUAUUUUAAUGAAACCCUGAUUGACGCACAGCAGUGGGGAGAACAGCGUCUUUUACAACAGAGGAUUGAGCAUCA  bound/input enrichment (RING finger protein unkempt homolog, zinc fingers 1-6, SBP tag (UNK, Homo sapiens, UniProt Q9C0B0, residues 30-357); RNA Bind-n-Seq; RNA, in vitro; 100 nM, RNA with constant flanks, ends assumed; relative to: input RNA pool, higher = stronger binding): 0.46 ratio

A few entries again (study 2):
UUGAAAAAAUGUUCUAUAUGCAUUUAAUUCUGAAAUCAGUCUACCAAGGGGCUGCUAGUAUAUGUCAGACAUGAAAACUAUUUUAAAGCUGACUUUGUUGCCUUAUCUUG: 0.4
UUCUAUUAUGAAUCAUGUGAAAGCAUGACAUUCGUUCACAAUAGCACUAUUUUAAAUAAAUUAUAAGCUUUAAGGUACGAAGUAUUUAAUAGAUCUAAUCAAAUAUGUUG: 0.331
UCUCAGCUGAGCUGUGAGGGCUUCCAGGGAAAAUGGAACAAAAUGGUGUUCUUAGGUAAUGGGUUGUAGAUACUGAGUCUUCCUUUCCUUUUCUGACCCUUCUCGAGGAC: 0.722
AACAUUAUUUUUAUUUUGACUUUUUUUCAAACAGUAAGAAUAAUAUAUCAGCAGCAUGUAUCUGCCAUCAUAUGUAAUAAAUUUCUUAUUUUGCCAAAACCACUUCAGAU: 2.89
UCAAAAAAAAAAAGUCCUCUUAAGGCCAGUAAUUUAUCUGAAAAGGUAUUUUAUCACACCUUGACACCUUAUAUAUGAGCCUAUUAGGAGCUGCAGGUGGUUUCAUAGGG: 0.32
UGGUGCCCUUGUUGACUGUCUGGGAAGAUGAAUAUACCAGGGUUUCCAAAUCCAGCCCUUUUCGUUCUCUUAAUGAUGAAUCACCCAAAGACCUGGCUUUCAUGCUUCCU: 0.295
